Measurements gathered from unrelated publications.
Parts stem from different laboratories: compare values within a part only. Changes are numbered by the printed parent chain.

Set 1 — effect on: enzyme activity; mode: inhibitor; method: radiometric; concentration: 0.5 µM
Target: Dual specificity tyrosine-phosphorylation-regulated kinase 1B (DYRK1B, Homo sapiens, UniProt Q9Y463)
| SMILES | remaining activity |
| --- | --- |
| O=C1c2ccccc2-c2n[nH]c3cccc1c23 | 65.7% |
| c1ccc(-c2[nH]ncc2-c2ccnc3ccccc23)nc1 | 102% |
| CCOc1nc(NC(=O)Cc2cc(OC)ccc2OC)cc(N)c1C#N | 99.2% |
| CCN(CC)C(=O)c1ccc(Nc2nc(OCC3CCCCC3)c3[nH]cnc3n2)cc1 | 90.2% |
| CN([C@@H](Cc1ccc(OS(=O)(=O)c2cccc3cnccc23)cc1)C(=O)N1CCN(c2ccccc2)CC1)S(=O)(=O)c1cccc2cnccc12 | 101% |
| N#Cc1c(NC(=O)c2cccc3ccccc23)sc2c1CCCC2 | 101% |
| c1ccc(-c2cnc(Nc3ccc(OCCN4CCCC4)cc3)s2)cc1 | 95.4% |
| CCN(CC)CCNC(=O)c1c(C)[nH]c(/C=C2\C(=O)Nc3ccc(F)cc32)c1C | 60% |
| Cn1nc2c3c(cccc31)C(=O)c1ccccc1-2 | 93.1% |
| CN(C)C[C@H]1CCn2c(c(C3=C(c4cn(C)c5ccccc45)C(=O)NC3=O)c3ccccc32)C1 | 92.2% |
| Cc1nc2cc3nc(-c4cccs4)cnc3cc2n1C | 102% |
| O=C1c2ccccc2-[n+]2ccc3c([nH]c4ccccc43)c21 | 98.7% |
| COc1cc(OC)c(C=C2C(O)=Nc3ccccc32)c(OC)c1 | 99% |
| O=C(NC(NC(=S)Nc1ccc(F)c([N+](=O)[O-])c1)C(Cl)(Cl)Cl)C(c1ccccc1)c1ccccc1 (centres unmarked) | 103% |

Set 2 — effect on: peptide-MHC binding; form: peptide; concentration: concentration not given
Target: HLA class I histocompatibility antigen, A alpha chain, allele A*25:01 (Homo sapiens, UniProt P04439)
| Sequence | binding |
| --- | --- |
| FLSFASLFL | inactive |
| DEGFHAATV | inactive |
| LEMNDAPTA | inactive |
| TPSHYSGNI | inactive |
| KLGEGFKSL | inactive |
| FPNLQVDPT | inactive |
| RAMDVYCHR | inactive |
| YWDQVTFFY | inactive |

Set 3 — target: UBE2A UBC core domain (UniProt P49459); method: yeast two-hybrid; matrix: yeast; notes: mostly zero background; reference: not given; direction: higher = stronger interaction
Sequence of UniProt P49459 (whole entry, looked up): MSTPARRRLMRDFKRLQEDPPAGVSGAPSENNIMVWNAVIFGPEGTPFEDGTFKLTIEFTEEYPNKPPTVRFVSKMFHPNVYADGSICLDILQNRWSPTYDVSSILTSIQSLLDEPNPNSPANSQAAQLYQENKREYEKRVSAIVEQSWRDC
B1: Ltn1 RING domain (UniProt Q6A009); chain VDKRFEGVEDCMICFSVIHGFNYSLPKKACRTCKKKFHSACLYKWFTSSNKSTCPLCRETFF
B2: RNF24 RING domain (UniProt Q9Y225); chain KVKELNLHELCAVCLEDFKPRDELGICPCKHAFHRKCLIKWLEVRKVCPLCNMPVLQLAQLH
B3: TRIM48 RING domain (UniProt Q8IWZ4); chain ISQVFQRELTCPICMNYFIDPVTIDCGHSFCRPCFYLNWQDIPILTQCFECIKTIQQRNLKT
B4: PRKN RING domain (UniProt O60260); chain LIATNSRNITCITCTDVRSPVLVFQCNSRHVICLDCFHLYCVTRLNDRQFVHDPQLGYSLPCVAGCPNSLIKELHH
| Sequence | lacZ reporter activity |
| --- | --- |
| KLWDINAHITCRLCSGYLIDATTVTECLHTFCRSCLVKYLEENNTCPTCRIVIHQSHPLQ (PCGF3 RING domain (UniProt Q3KNV8)) | 0 |
| NTAPSLTVPECAICLQTCVHPVSLPCKHVFCYLCVKGASWLGKRCALCRQEIPEDFLDK (RNF146 RING domain (UniProt Q9NTX7)) | 0 |
| B1 (Ltn1 RING domain) | 0 |
| B2 (RNF24 RING domain) | 0 |
| B3 (TRIM48 RING domain) | 0 |
| KITELNPHLMCVLCGGYFIDATTIIECLHSFCKTCIVRYLETSKYCPICDVQVHKTRPLL (BMI1 RING domain (UniProt P35226)) | 0 |
| KEQLEKHNDICAICYQDMKSAVITPCSHFFHAGCLKKWLYVQETCPLCHCHLKNSSQLP (RNF145 RING domain (UniProt Q96MT1)) | 0 |
| B4 (PRKN RING domain) | 0 |

Set 4 — target: CCNB2, cyclin fold, Cln2 fusion (human); method: yeast growth competition, sequencing; matrix: yeast; notes: strong parent motif; reference: not given; direction: higher = stronger binding
Starting sequence: viral docking peptide; YKVKRRLVFGADD; partner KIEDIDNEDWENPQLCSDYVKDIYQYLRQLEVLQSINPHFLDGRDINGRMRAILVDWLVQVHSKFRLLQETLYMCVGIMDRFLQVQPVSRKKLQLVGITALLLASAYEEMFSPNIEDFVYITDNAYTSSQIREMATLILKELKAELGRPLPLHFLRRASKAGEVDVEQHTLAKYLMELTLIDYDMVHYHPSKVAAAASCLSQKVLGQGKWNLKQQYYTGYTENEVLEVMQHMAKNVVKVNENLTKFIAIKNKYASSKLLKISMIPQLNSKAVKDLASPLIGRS
| Substitution | normalised enrichment score |
| --- | --- |
| YKPKRRLVFGADD [V3P] | 0.42 |
| YKVPRRLVFGADD [K4P] | 0.297 |
| YKDKRRLVFGADD [V3D] | 0.648 |
| YKVKRRLVPGADD [F9P] | 0.118 |
| YKVKARLVFGADD [R5A] | 0.441 |
| YKVKRRLVFGIDD [A11I] | 1.53 |
| YKVKRLLVFGADD [R6L] | 0.687 |
| YKVKRRLVLGADD [F9L] | 0.485 |

For quick reference, copied from above (set 4):
| Substitution | normalised enrichment score |
| --- | --- |
| YKPKRRLVFGADD [V3P] | 0.42 |
| YKVPRRLVFGADD [K4P] | 0.297 |
| YKDKRRLVFGADD [V3D] | 0.648 |
| YKVKRRLVPGADD [F9P] | 0.118 |
| YKVKARLVFGADD [R5A] | 0.441 |
